Assay results of several laboratories.
Each numbered part is a random draw from the data of one study; scales do not carry over between parts.

Set 1
Target: RNA binding protein fox-1 homolog 2, RRM domain, GST-SBP tag (RBFOX2, Homo sapiens, UniProt O43251-10, residues 100-194)
Technique: RNA Bind-n-Seq
Molecule type: RNA
Medium: in vitro
Tested at: 365 nM
Notes: natural RNA segment, single round, ends assumed
Baseline: no-protein control
Direction: higher = stronger binding
All sequences stand within: GGGAGUUCUACAGUCCGACGAUC … UGGAAUUCUCGGGUGCCAA
Target sequence (chain): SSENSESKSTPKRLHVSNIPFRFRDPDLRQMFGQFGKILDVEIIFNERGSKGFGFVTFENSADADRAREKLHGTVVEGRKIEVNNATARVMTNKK
| Oligonucleotide | RBNS enrichment (R) |
| --- | --- |
| CAAGCCAUUCUCCAAGGGGGCCUGGCACAGUAAGCACUUCAAGCAUGAAUUGGGUAAGCUGGUUUGUUUGACUAGGAAACGGUUCCACAGAGUAUUUGCCACAAGAGGAG | 23.1 |
| CACAAGACCCUGUCUCAACCAGAAAAGAAAAAUGUGUUUGCCAAAUCAUAACUCAGGGGCUUUGAACAGAGCUGUCUCUGUUUCAAUUGGCAUCCUUGCUCAUCCAUUCC | 0.551 |
| CCAGCCAAGAUGGGGCCAUUCUCUCUGUGGAGGAGCCCCUUCCAGCCUUUGUCAGGAAGUGUCUUUGGGGAUUCUAGAAUGUUGGGACUUCUCAGUGUGUGUGUUGUGGU | 6.27 |
| AGAUAAUGAAUGACACCUGAAAUGCAUAUGGUAUUUUUGGGAGAGUUAAGGUAUAAUUUGAAGGUUGGCAGACCAGUUGCGCUGAUUACUCUUAGAGAAGAAGAAAUGGA | 0.837 |
| GACCAAGGUAAGAUACUCAAUCAAGGCCAUUUAAUCAAUCACAUUCAUCUCAUAAUAGAAACACAUUCGUAUUCUAAUGAUCAAUCUAAAGUUCCCGUUGAGGAGGAGGC | 0.398 |
| CAUUUCCUAGGAACGGUCUCUGACUCCUGGACAACUACUCCUGUAUCGGCUCUGGCUCCCCGGAACCAUUAGAGACUAACUGUUGUUUCCACAAAGGAGGGCUGAGAGUG | 0.245 |
| AAUAUCUUAAGAGUAUUGAUAUCUUUCAUUUUUUCAUCCAGCAGUCUAGUGCCCAGCUGCUGACAAUAAAAGCUCCAACUCUUUUAGAGAUCAGUGGAAUUUAGAAGCAU | 0.517 |
| GACAGAAUCAUGGGACUUUGAGAAGAGGGAGGACAGAGGCCUCUGUCGCACUAACGCUCUCGUGGUUGCUCGACUGUUGUAUCUGUGAUACAUUAUCCGACUAAGGACUC | 0.289 |
| ACCUGCAUAGUUGCUACAUACAUGUUUCUCACUGUAAAAGGCUGCCGCUGGGUGGCAGAAGCCAAAAGACCUUAUUAACGAGGCUAUAUUUUUCUUAACUUGAUCUGCAA | 0.369 |
| UGUUAAGUCUUUGGAUCUAUACUUAACUGAUGACCUAGAAGAGCGAUUCUCAAAAGUGUGAGUCCUGGACCAGCAGCAACAGCAUCACCGGGAACUUGUUAGAAAUGCAC | 0.723 |
| AACCCCCCACCCCGUUACCCUGACCUGAUAAAUCCCAUGACCACAUUUCUCAUAUAAAGAAGACAUCUACCAUUGAGUGAGCCAUCUCUUGGGAAGCUCUGGGAGAUGUG | 0.417 |
| GGACCCUUGGUCUAAUUCGCACUUUCCUCACGAGAAUUAAAUUAAGCAAAAAACAAACAAACAUAGUGGGCCCUCGUCUAGAUCAUGAUGUGCCAGUUUCUGAGACAUCU | 0.402 |

Set 2
Target: Sal-like protein 4, full length isoform A (SALL4, Homo sapiens, UniProt Q9UJQ4, residues 1-1053)
Sequence of UniProt Q9UJQ4 (whole entry, looked up): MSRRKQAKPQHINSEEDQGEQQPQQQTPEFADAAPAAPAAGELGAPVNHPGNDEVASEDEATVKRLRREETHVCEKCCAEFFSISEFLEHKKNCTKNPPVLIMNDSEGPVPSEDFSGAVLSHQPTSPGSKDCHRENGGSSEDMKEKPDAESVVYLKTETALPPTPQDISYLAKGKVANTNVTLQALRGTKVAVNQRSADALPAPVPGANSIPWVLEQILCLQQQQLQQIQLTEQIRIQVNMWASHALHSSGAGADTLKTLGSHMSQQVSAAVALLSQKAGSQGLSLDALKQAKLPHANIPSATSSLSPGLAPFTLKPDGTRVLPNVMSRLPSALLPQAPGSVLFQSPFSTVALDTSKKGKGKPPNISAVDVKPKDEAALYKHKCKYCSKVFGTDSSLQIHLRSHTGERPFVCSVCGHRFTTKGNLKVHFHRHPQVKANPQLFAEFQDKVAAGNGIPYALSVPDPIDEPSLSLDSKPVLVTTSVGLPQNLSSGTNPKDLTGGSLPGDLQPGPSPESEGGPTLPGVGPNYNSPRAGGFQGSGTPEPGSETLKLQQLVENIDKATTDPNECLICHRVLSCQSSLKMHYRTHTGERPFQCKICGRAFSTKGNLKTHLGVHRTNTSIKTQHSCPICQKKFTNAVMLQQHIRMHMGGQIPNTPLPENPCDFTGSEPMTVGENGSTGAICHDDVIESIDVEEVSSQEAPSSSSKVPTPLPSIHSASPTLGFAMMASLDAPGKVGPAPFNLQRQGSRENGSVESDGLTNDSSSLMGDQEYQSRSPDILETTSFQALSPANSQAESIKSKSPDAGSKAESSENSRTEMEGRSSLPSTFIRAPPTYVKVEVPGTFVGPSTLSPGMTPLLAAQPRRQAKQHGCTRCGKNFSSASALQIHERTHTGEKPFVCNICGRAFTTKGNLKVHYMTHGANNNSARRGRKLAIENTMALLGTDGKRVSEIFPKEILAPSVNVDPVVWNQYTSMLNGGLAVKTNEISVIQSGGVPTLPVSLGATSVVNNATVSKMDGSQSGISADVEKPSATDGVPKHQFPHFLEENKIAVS
Technique: universal PBM
Molecule type: double-stranded DNA, one strand shown
Medium: in vitro
Tested at: 600 nM
Notes: 8-mer, flanks averaged, mean of replicates
Direction: higher = stronger binding
| Oligonucleotide | E-score |
| --- | --- |
| CTCCTGTA | -0.0689 |
| CGGCTAAC | -0.131 |
| CGCCGTAA | -0.227 |
| AGGGAATG | 0.0191 |
| AGAAGCCT | 0.0155 |
| GCGAGAGA | -0.231 |
| GCTAAGTA | 0.0775 |
| ATCGAGAT | 0.0422 |
| CAGCTGCA | -0.135 |
| AGCGACAT | 0.0273 |
| ACCTTAGA | 0.00598 |
| ACTAATCT | 0.148 |
| GAAACCTC | -0.249 |
| CTGCGCAC | -0.145 |
| ATCCAGAA | 0.139 |
| CGAGTTTA | -0.0328 |
| GAGGCCCC | -0.415 |
| AGGTGCGG | -0.201 |
| CACGTAAC | -0.078 |
| TGAGTGAA | 0.0874 |
| ACGCGCGG | -0.349 |
| CGCATCTC | -0.117 |
| CGGATTGC | -0.0962 |
| CGGTATAG | -0.0799 |
| CCAGGGCG | -0.457 |

Set 3
Target: Histone acetyltransferase KAT6A, winged helix 2, GST fusion (KAT6A, Homo sapiens, UniProt Q92794, residues 85-181)
Technique: protein binding microarray
Molecule type: double-stranded DNA, one strand shown
Medium: in vitro
Tested at: not given
Notes: 8-mer, flanks averaged, mean of 2 arrays, mostly near background
Baseline: not given
Direction: higher = stronger binding
Residues (chain): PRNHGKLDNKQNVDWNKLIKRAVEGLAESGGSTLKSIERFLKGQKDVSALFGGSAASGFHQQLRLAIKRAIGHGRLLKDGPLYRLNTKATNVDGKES
| Oligonucleotide | E-score |
| --- | --- |
| AGTAGAAT | -0.0931 |
| ACACAGTG | 0.0359 |
| ACGAGGAA | -0.0675 |
| CATGTAGC | 0.0903 |
| AATTAAAT | -0.00222 |
| GGGATAAC | -0.0647 |
| CAGCAATA | 0.101 |
| CGGGTGTC | 0.102 |
| AACACAGT | -0.119 |
| TACAGACA | 0.143 |
| ATCTCGCA | 0.169 |
| ACGAACAT | 0.1 |
| AAGCATCG | 0.067 |
| ACCATGTG | -0.144 |
| GTCCACAC | 0.155 |
| CGCTCCTC | 0.0546 |
| AGGTGGCA | 0.0846 |
| ATCCGACG | 0.0282 |
| GAGTCCGA | 0.0883 |
| GCTTATCC | 0.0222 |
| AACAATGC | 0.011 |
| GGTCTCAA | -0.0891 |
| CACGGACG | 0.133 |
| ATCCCGGA | -0.0204 |
| ACATCACC | -0.178 |

Set 4
Target: Hepatocyte nuclear factor 3-beta, forkhead domain (FOXA2, Homo sapiens, UniProt Q9Y261, residues 142-269)
Technique: protein-binding microarray
Molecule type: double-stranded DNA, one strand shown
Medium: in vitro
Tested at: not given
Notes: k-mer, scored over probes, only values ≥0.25
Direction: higher = stronger binding
Residues (chain): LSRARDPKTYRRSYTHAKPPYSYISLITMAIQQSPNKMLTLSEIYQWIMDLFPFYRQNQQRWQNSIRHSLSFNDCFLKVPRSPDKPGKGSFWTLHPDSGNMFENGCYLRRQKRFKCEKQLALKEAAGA
| Oligonucleotide | E-score |
| --- | --- |
| GTATGTGA | 0.273 |
| ATACATCA | 0.309 |
| ATAACTAT | 0.305 |
| AATAGTTG | 0.284 |
| AAATAATA | 0.292 |
| CATACAAA | 0.277 |
| TATTGTAA | 0.304 |
| AATGGTAA | 0.301 |
| ATTAGTTG | 0.317 |
| TACGATAA | 0.295 |
| AATAACGA | 0.277 |
| ACAGACAA | 0.354 |
| CTGATAAA | 0.288 |
| AACATGTA | 0.35 |
| GTGTATTA | 0.364 |
| AAATACAG | 0.32 |
| ATTTAAAT | 0.313 |
| AAAGCAAT | 0.281 |
| GAGTAAAC | 0.298 |
| ACATAACG | 0.306 |
| ATACCATA | 0.355 |

Set 5
Target: RING finger protein unkempt homolog, zinc fingers 1-6, GST-SBP tag (UNK, Homo sapiens, UniProt Q9C0B0, residues 30-357)
Technique: RNA Bind-n-Seq
Molecule type: RNA
Medium: in vitro
Tested at: not given
Notes: RNA with constant flanks, human and mouse sites, ends assumed
Baseline: input RNA pool
Direction: higher = stronger binding
All sequences stand within: GGGAGUUCUACAGUCCGACGAUC … CAACAGAGGAUUGAGCAUCA
Target sequence (chain): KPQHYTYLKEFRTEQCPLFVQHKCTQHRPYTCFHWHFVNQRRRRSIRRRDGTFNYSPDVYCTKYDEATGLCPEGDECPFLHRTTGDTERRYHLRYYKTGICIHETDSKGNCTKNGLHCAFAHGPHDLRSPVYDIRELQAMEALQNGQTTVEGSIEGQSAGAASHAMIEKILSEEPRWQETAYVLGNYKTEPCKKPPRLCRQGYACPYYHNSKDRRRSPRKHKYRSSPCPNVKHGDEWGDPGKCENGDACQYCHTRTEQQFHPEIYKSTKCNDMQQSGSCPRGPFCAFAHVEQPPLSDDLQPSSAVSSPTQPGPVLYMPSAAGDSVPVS
| Oligonucleotide | bound/input enrichment |
| --- | --- |
| GACCCAACUCCAACAAUGAGAGAUGUGAACAAAAAAUUUUCAGUAAGGUACUUUUUGAAUUUAGUGCUUGUUGAUGAGGAAGACCGGAGGUACUUCAAACAGCAGGAGAUAAUUUUAUGG | 0.365 ratio |
| UUUGAGUCACUGCAAAAGAAAACCAAGAUUGCACUGGAACAUCCCAUGUUAACAGAUAUUCAUGACAAGCUGGUGUUGAAGGGUGAUUUUGAUGCUUGCGAAGAGUUGAUUGAAAAGGCU | 0.238 ratio |
| GCUGAAAGAAUGUCUAUUCUACAUCAUGAUCGAGAAGUUCGCAAAGAGAAAAUGCUCAGGCAAAUGGAUAAAAUGAAAAGUCCACGAGUGGCUCUUUCAGCUGCAACACAGAAGUCUCUU | 0.0993 ratio |
| UCAUCUACAUUUGCAAUUCCCCAAGAGCUAGAGAAAAGUGUACAGAUGUUUGAAUUGUUUUAUAGCCAGCAUUUCAGUGGACGGAAGCUGACAUGGUUGCAUUAUCUCUGUACAGGUGAA | 0.906 ratio |
| CUGGUGUGCCAGGAGAGUACUAAAUUUAAGAAUGUUUGGACAACUCAUUCCAAGUCACCUAUAGCCUAUGAGAGAGGAAGAAUAUAUUUUGACAAUUACCGGUGCUGUGUCAGCAGUGUU | 1.86 ratio |
| AGACUGGAGAGAAUAAAGAGCAGUCGCAAAUGAAGCUGCCCACCCUCGGCACUCUGCAGCUUUAGUUACUGAUCUAGAAGCCCUGUAGUGUGAAGCGGCCGCUGCAGGCCAUUGUACACA | 0.556 ratio |
| AUUGUGGAGUAUCAGAACAAGGGCCGCGGGAACGAGUGCGUGCAGUACCAGCAUGUGUUACAUAGAAAUCUCAUUUAUUUGGCUACCAUUGCAGAUGCCAGUCCAACCAGCACUUCAAAA | 0.388 ratio |
| CCCAUUAUUGAAUCUUCCACAAACAUCAAGUUUGGCUGUUUUCAAUGGUACUACCCUGAAUUAGCAGCCCAAUUCAAAGAUGCAGGCCUCAGUAUCUUCAAUAACAUUUGGAGUCAUGUU | 0.274 ratio |
| UCACUCCCGUAGCAUGCCCUUGUAGUUUCUCUUGACCAAGGAUGAACUAGUCCUGUGAGCUGGCCGUCAGCUCCUGCAUAUGUGUAUAAACCUCAGAUGUUACUACGUUUUAUACCUACC | 1.35 ratio |
| UGUGCUUUUAUAUAACCAUUUUGUUAUUUGAAUCUUGAAAAACUAGUUUUCUUAUAUUCCUAUAGUCUUGGUUUUUUUAAAGGCCUUUGCAUACACCUUUAUGAUAGUUUAAGAUUGACU | 5.29 ratio |
| UUGGACCUGGAUGACCAUGGUGGCAGAACCUUCCUCAGGGUCCUGCUCCACUUGACAAUGCAUGACUACCCACCCCUGGUGUCUGGGGCCCUGCAGCUCCUCUUUCGGCACUUCAGCCAG | 0.108 ratio |

For quick reference, copied from above (set 1):
| Oligonucleotide | RBNS enrichment (R) |
| --- | --- |
| AGAUAAUGAAUGACACCUGAAAUGCAUAUGGUAUUUUUGGGAGAGUUAAGGUAUAAUUUGAAGGUUGGCAGACCAGUUGCGCUGAUUACUCUUAGAGAAGAAGAAAUGGA | 0.837 |
| GACCAAGGUAAGAUACUCAAUCAAGGCCAUUUAAUCAAUCACAUUCAUCUCAUAAUAGAAACACAUUCGUAUUCUAAUGAUCAAUCUAAAGUUCCCGUUGAGGAGGAGGC | 0.398 |
| CAUUUCCUAGGAACGGUCUCUGACUCCUGGACAACUACUCCUGUAUCGGCUCUGGCUCCCCGGAACCAUUAGAGACUAACUGUUGUUUCCACAAAGGAGGGCUGAGAGUG | 0.245 |
| AAUAUCUUAAGAGUAUUGAUAUCUUUCAUUUUUUCAUCCAGCAGUCUAGUGCCCAGCUGCUGACAAUAAAAGCUCCAACUCUUUUAGAGAUCAGUGGAAUUUAGAAGCAU | 0.517 |
| GACAGAAUCAUGGGACUUUGAGAAGAGGGAGGACAGAGGCCUCUGUCGCACUAACGCUCUCGUGGUUGCUCGACUGUUGUAUCUGUGAUACAUUAUCCGACUAAGGACUC | 0.289 |
